Experimental data collected from several papers.
TMPRSS2: Transmembrane protease serine 2 (TMPRSS2, Homo sapiens, UniProt O15393)
UniProt O15393, sequence (whole entry, looked up): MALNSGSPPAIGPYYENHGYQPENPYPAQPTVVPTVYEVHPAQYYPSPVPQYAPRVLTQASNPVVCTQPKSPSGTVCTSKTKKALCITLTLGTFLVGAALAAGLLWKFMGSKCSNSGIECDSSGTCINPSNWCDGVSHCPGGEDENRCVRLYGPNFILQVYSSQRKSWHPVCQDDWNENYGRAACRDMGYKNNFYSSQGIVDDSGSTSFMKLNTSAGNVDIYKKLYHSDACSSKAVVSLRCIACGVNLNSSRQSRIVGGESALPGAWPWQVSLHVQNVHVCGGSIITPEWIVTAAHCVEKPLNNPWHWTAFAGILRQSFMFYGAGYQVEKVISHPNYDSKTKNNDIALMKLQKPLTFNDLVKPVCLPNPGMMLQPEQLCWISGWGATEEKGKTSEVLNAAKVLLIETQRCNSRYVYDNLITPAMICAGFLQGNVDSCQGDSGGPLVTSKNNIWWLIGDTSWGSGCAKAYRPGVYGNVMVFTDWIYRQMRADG
PFF0160c E182D: Dihydroorotate dehydrogenase (quinone), mitochondrial (PFF0160c, Plasmodium falciparum, UniProt Q08210, E182D)
CTSL: Procathepsin L (CTSL, Homo sapiens, UniProt P07711)
UniProt P07711, sequence (whole entry, looked up): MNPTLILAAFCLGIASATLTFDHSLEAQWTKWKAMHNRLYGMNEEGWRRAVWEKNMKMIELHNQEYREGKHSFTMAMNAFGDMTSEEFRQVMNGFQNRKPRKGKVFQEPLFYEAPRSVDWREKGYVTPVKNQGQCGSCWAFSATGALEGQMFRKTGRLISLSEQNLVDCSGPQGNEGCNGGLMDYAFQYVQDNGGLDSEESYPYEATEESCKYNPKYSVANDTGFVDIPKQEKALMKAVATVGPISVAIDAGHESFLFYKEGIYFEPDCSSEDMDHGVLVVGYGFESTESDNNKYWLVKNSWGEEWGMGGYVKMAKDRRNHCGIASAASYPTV
UniProt Q9Y2H9, sequence (whole entry, looked up): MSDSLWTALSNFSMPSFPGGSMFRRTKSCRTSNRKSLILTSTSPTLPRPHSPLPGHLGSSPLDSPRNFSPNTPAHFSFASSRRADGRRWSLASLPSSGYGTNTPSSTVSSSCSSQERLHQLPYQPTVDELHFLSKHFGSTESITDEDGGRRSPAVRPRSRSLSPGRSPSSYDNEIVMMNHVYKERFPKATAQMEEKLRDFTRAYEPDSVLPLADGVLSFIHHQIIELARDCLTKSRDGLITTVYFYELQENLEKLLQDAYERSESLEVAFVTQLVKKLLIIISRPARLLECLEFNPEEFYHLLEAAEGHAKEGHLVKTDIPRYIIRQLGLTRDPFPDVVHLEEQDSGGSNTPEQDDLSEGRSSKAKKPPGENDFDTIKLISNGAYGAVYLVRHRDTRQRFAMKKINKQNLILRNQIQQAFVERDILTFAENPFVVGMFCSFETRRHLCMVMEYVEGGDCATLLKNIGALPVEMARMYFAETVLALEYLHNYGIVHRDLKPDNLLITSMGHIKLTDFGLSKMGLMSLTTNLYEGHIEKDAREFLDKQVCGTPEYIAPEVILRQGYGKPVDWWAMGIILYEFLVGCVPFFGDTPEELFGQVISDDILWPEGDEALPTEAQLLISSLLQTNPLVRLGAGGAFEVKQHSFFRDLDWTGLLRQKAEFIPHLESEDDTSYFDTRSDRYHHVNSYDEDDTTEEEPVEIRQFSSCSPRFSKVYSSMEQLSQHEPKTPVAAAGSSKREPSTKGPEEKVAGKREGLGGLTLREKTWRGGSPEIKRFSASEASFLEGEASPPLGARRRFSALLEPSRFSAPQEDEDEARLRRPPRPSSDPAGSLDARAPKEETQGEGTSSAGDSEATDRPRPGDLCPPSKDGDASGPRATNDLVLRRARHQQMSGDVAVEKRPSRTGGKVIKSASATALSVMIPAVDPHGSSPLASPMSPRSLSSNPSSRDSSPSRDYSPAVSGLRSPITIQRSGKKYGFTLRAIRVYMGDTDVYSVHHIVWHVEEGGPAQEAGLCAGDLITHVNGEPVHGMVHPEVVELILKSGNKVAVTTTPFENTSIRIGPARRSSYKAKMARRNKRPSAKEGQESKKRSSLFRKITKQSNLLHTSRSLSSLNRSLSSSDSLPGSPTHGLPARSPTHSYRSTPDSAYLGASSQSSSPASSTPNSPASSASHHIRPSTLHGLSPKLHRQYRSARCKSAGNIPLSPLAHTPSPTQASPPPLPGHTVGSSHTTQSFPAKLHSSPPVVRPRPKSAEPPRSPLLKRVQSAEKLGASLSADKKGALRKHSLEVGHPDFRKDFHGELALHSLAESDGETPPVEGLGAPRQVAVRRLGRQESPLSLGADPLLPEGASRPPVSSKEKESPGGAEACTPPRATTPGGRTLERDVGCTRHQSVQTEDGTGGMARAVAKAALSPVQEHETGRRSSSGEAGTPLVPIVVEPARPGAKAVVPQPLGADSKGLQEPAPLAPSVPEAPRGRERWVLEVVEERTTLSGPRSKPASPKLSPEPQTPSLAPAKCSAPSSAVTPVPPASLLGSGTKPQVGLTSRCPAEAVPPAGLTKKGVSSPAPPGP
UniProt P08172, sequence (whole entry, looked up): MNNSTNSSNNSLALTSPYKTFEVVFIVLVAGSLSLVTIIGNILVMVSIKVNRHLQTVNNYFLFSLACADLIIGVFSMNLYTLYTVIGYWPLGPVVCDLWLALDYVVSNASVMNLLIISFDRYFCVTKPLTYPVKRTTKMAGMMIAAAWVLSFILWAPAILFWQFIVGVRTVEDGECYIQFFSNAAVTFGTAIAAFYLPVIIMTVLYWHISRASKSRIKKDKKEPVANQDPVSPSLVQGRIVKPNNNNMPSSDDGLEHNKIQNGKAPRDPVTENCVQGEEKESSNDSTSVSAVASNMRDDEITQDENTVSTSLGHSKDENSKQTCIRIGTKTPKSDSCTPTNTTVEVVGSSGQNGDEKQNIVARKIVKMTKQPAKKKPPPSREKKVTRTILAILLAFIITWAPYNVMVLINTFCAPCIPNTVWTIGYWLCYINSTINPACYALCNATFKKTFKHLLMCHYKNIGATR
UniProt Q9NWZ3, sequence (whole entry, looked up): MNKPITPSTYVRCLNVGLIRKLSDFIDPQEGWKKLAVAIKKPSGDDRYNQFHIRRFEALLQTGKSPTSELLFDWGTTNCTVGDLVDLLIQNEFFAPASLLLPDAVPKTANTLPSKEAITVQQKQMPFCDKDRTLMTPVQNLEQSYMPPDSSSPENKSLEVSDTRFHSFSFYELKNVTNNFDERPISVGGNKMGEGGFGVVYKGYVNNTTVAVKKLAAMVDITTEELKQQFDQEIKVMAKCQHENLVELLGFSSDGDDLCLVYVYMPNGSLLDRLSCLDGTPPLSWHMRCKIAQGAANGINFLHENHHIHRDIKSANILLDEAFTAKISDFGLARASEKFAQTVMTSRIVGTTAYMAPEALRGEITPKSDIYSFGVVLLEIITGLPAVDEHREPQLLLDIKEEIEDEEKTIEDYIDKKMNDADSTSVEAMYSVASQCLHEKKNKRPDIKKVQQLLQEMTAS
UniProt Q15569, sequence (whole entry, looked up): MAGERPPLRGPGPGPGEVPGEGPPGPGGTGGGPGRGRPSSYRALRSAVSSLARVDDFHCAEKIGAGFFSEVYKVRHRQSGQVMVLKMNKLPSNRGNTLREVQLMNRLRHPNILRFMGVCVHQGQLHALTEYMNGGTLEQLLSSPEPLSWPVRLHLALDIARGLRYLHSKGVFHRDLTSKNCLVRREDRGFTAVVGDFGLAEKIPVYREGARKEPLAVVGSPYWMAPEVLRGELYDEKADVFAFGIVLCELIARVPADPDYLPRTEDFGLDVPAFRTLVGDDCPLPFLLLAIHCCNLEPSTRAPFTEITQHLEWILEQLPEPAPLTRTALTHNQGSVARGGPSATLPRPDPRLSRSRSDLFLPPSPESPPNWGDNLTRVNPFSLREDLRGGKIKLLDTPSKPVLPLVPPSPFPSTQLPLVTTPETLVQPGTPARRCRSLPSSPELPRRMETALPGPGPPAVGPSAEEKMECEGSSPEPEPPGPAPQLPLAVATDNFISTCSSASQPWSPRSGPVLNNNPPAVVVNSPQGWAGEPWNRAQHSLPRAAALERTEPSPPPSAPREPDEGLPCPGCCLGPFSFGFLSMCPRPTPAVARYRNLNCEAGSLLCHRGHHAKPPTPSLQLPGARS
UniProt P22303, sequence (whole entry, looked up): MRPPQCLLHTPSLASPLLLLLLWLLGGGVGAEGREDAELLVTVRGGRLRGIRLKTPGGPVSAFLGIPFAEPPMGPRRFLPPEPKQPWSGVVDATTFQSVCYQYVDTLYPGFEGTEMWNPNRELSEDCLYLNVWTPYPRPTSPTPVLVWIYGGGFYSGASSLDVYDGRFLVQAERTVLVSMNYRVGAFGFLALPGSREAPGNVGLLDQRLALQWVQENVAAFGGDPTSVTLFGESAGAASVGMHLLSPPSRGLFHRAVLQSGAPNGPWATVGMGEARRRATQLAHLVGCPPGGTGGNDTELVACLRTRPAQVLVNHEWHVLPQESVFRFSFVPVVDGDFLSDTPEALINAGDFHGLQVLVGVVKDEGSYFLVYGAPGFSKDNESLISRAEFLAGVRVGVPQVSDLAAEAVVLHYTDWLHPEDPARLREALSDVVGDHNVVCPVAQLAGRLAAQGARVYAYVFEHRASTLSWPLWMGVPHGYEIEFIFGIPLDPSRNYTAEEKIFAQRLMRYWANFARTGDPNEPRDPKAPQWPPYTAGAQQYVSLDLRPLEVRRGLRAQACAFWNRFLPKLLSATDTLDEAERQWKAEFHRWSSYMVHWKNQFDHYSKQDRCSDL

SMILES | tested on | test | test system | setting | measurement | result
Nc1ncc(-c2nc(N3CCOCC3)nc(N3CCOCC3)n2)c(C(F)F)n1 | Cyclin-dependent kinase 2 homolog (CRK2, Plasmodium falciparum, UniProt P61075) | binding, competition with immobilised ligand |  | 10 µM | remaining binding | 64%
[2H]c1c([2H])c([C@]2([2H])CCCN2C(=O)C(C)(C)Oc2ccc3cn[nH]c3c2)c([2H])c([2H])c1C([2H])([2H])[2H] | Dual specificity testis-specific protein kinase 1 (TESK1, Homo sapiens, UniProt Q15569) | binding, competition with immobilised ligand |  | 1 µM | remaining binding | 86%
CN1CCC[C@H]1c1cccnc1 | Muscarinic acetylcholine receptor M2 (CHRM2, Homo sapiens, UniProt P08172) | ligand displacement |  | 50 µM | inhibition | -1.33%
C#Cc1n[nH]c2c(-c3cn(C(C)c4ccccn4)c(=O)[nH]c3=O)cc(F)cc12 (stereo not drawn) | Interleukin-1 receptor-associated kinase 4 (IRAK4, Homo sapiens, UniProt Q9NWZ3) | enzyme activity, inhibitor |  | 1 µM | inhibition | 12.3%
CCN(CC)CCCC[C@H](NC(=O)[C@H](CC(C)C)NC(=O)[C@H](C)NC(=O)[C@H](Cc1ccccc1)NC(=O)c1ccc(C(C)(C)C)cc1)C(=O)N[C@@H](CO)C(=O)OC | SP140L (Homo sapiens, UniProt Q9H930) | thermal stability, DSF |  | 25 µM | ΔTm | 0.53 °C
C[C@@H](O)[C@@H](NC(=O)[C@H](CCc1ccccc1)NC(=O)CCc1ccccc1)C(=O)N[C@@H](CCCNC(=N)N)C(=O)c1nc2ccccc2s1 | TMPRSS2 | enzyme activity, inhibitor |  | 1 nM | activity vs control | 87%
CC(C)CC(=O)OC[C@H]1O[C@@](C#N)(c2ccc3c(N)ncnn23)[C@H](O)[C@@H]1O | cGMP-inhibited 3',5'-cyclic phosphodiesterase 3A (PDE3A, Homo sapiens, UniProt Q14432) | enzyme activity, inhibitor |  | 20 µM | inhibition | 2%
O=C(CSc1nnc(O)n1Cc1ccccc1)Nc1ccccc1-c1ccccc1 | PFF0160c E182D | enzyme activity, inhibitor, absorbance |  |  | IC50 | 0.473 µM
Cc1nn(C)cc1-c1nc2c(N3CCN(Cc4ccc(Cl)cc4)CC3)c(Cl)cnc2[nH]1 | Epidermal growth factor receptor (EGFR, Homo sapiens, UniProt P00533, A750P/del747-749) | binding, competition with immobilised ligand |  | 1 µM | remaining binding | 100%
C[C@H](NC(=O)[C@H](CCC(N)=O)NC(=O)[C@H](CCCNC(=N)N)NC(=O)c1ccccc1)C(=O)NC(CCCNC(=N)N)C(=O)c1nc2ccccc2s1 (stereo partly drawn) | TMPRSS2 | enzyme activity, inhibitor |  | 1 nM | activity vs control | 23%
CN1C(=S)N(c2ccccc2)C(=O)/C1=C1/C(=O)N(C)c2ccc(Cl)cc21 | Acetylcholinesterase (ACHE, Homo sapiens, UniProt P22303) | enzyme activity, inhibitor, Ellman |  | 0.1 µM | inhibition | 13%
C[C@H](NC(=O)[C@H](CCC(N)=O)NC(=O)[C@@H](N)CCCCNC(=N)N)C(=O)N[C@H](CCCNC(=N)N)C(=O)c1nc2ccccc2s1 | TMPRSS2 | enzyme activity, inhibitor |  | 1 nM | activity vs control | 91%
COc1ncccc1-c1cnn2ccc(N3CCN(C(=O)OC(C)C)CC3)nc12 | Microtubule-associated serine/threonine-protein kinase 1 (MAST1, Homo sapiens, UniProt Q9Y2H9) | binding, competition with immobilised ligand |  | 1 µM | remaining binding | 82%
O=c1[nH]c(CSc2ccc3c(c2)CCC3)nc2scc(-c3ccco3)c12 | PFF0160c E182D | enzyme activity, inhibitor, absorbance |  |  | IC50 | 8.6 µM
CS(=O)(=O)N[C@@H](CCC(N)=O)C(=O)N[C@@H](Cc1ccccc1)C(=O)N[C@@H](CCCNC(=N)N)C(=O)c1nccs1 | TMPRSS2 | enzyme activity, inhibitor |  | 1 nM | activity vs control | 87%
COC(=O)c1cc(-c2cccc(NC(=O)Nc3c(C)cccc3C)c2)on1 | Pseudomonas aeruginosa | microbial growth, broth dilution | ATCC27853 |  | MIC | > 64 µg/mL
N.N.[Cl][Pt][Cl] | KARPAS-299 | cell growth or viability, ATP luminescence |  | 10 µM, 72 h | inhibition | 100%
CC(=O)C(=O)c1ccccc1 | CTSL | enzyme activity, inhibitor |  | 100 µM | remaining activity | 66.3%
COC(=O)c1cc(-c2cccc(NC(=S)Nc3ccc(F)cc3F)c2)on1 | Pseudomonas aeruginosa | microbial growth, broth dilution | ATCC27853 |  | MIC | > 64 µg/mL
CC(C)(C)[C@H](NC(=O)[C@H](CCc1ccccc1)NC(=O)CCc1ccccc1)C(=O)N[C@@H](CCCNC(=N)N)C(=O)c1nc2ccccc2s1 | TMPRSS2 | enzyme activity, inhibitor |  | 1 nM | activity vs control | 100%
COc1ccc(/C=C/c2cc(O)cc(O)c2)cc1 | CTSL | enzyme activity, inhibitor |  | 100 µM | remaining activity | 18.6%

For quick reference, copied from above:
SMILES | tested on | test | test system | setting | measurement | result
C[C@@H](O)[C@@H](NC(=O)[C@H](CCc1ccccc1)NC(=O)CCc1ccccc1)C(=O)N[C@@H](CCCNC(=N)N)C(=O)c1nc2ccccc2s1 | TMPRSS2 | enzyme activity, inhibitor |  | 1 nM | activity vs control | 87%
